Results of several laboratories.
A part holds a random share of what one study measured. Positions count from the first letter of the parent shown.

Block 1
Target: RNA binding protein fox-1 homolog 2, RRM domain, GST-SBP tag (RBFOX2, Homo sapiens, UniProt O43251-10, residues 100-194)
Method: RNA Bind-n-Seq
Form: RNA
Matrix: in vitro
Tested at: 365 nM
Setting: natural RNA segment, single round, ends assumed
Reference: no-protein control
Direction: higher = stronger binding
Residues (chain): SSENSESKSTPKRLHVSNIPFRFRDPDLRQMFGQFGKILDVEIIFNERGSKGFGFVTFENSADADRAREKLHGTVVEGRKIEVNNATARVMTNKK
| Strand | RBNS enrichment (R) |
| --- | --- |
| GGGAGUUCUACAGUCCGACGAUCCUCGAUGGACGAUCUCAGCCUUGAGCCCCACGAGGAGCUUGCUUGCUGGGCUCAUCCUGUCUCCCCUGACAACUGUGACUUCUCCUGGAGAGGCCUGUGCACUGCUGAAGUGGAAUUCUCGGGUGCCAA | 0.453 |
| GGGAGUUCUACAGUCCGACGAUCGGAAGCACUUGAUGGAGAGCUGCCCAGCUCUCCUACAAGGUUAGUGCCCUCCACCUAGGGAAGCAUGAACCACAGGGUCCCUGAGGGCCUUCGACAAAAGUGUGUAUUUGUGGAAUUCUCGGGUGCCAA | 2.23 |
| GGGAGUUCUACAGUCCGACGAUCAGUAAAGUAAAAAACCUAUUAAAUUGAGGCUAGAGCUGGAGAUGUAAUUGGUUUUUGAGAAACAUUAGUAUAAAGCUUGCCCUUGUUGUGUGGAAGAAGCCAUUUUGUACUGGAAUUCUCGGGUGCCAA | 0.561 |
| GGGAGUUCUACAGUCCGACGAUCACCAACGAAUUCACCAACCAGGGGUUUCUUUCCCUACCCUUUGUGAAAACCAAUCAAUUACUAGAUGAGUGGAUGGAUGCAGAAAAAUCUGGGCUGAGCCAAAGUCCCUUUGGAAUUCUCGGGUGCCAA | 0.384 |
| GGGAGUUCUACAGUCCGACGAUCUGGGAUCUUUGGGUGAUCAAGGGUGUGGUUAGUGGAGGCUCUGUGCUGCACGUAUGCAGUAUCCUAUCUCUUUCUACAUCAGAUCAAAACACUAAGUUGGUGUACUGCCUUGGAAUUCUCGGGUGCCAA | 2.26 |
| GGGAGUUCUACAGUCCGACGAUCAGCCCUCAAGAUACCCUUGUCCCUGAAGUAGGGACUAACUAUAGCACAAGAUAGUAUGUGCCAAUAUAGCCAAGAUAAUAUGUGAAAUGGUCUUUCUAAAUGAUUAAAGAUGGAAUUCUCGGGUGCCAA | 0.34 |
| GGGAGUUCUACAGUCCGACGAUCGAUACUGGACAGAUGGAUUCUGGUGUGGGGAAAGCACAGAUACUGGACAGAUGGAUUCUAGUGUGACUUGUGACUGUGAGGUUUCCUAUAACAUAUUUAUAAAUGUUACUUGGAAUUCUCGGGUGCCAA | 0.645 |
| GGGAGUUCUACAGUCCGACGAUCCUUGAGACUGUCCCACAGUGCUCCUCUAGAGGCUGCUGGGGCCACCCUGACAUCACUCAGCACUCACUUGCUACCAAUUCUAUUUAUUUCGGAAUUACAAGAUAGCGGGAUGGAAUUCUCGGGUGCCAA | 0.296 |
| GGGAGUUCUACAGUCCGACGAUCUAAGGAAUUUCUCAUCUGACAAUGGAACAGAAAUAGAAGCAUGGCCCCCACAGGCUGGGGACCAGUGGCAACCUGCAGCUACAACACUCCUAUCUCAGCGGAAUUCUAAAUGGAAUUCUCGGGUGCCAA | 0.26 |
| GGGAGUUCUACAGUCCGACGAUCCACAAAGUGAAAGUGGACCCUCCAGAAAUUUUAGGAAUUGCCACAAAGAUUGAUGAUAGAUGAAUAAACAGAUUUGUGGCCUCUGGUAAAGAAAUCCAGCCAAGUUCCUCUGGAAUUCUCGGGUGCCAA | 1.46 |
| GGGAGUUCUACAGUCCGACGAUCCACACAGUAAAUGUUUAUUAAUAGUCAUGGUUCGUAUUUUAGGUGACUGAAAUUGCAUCAGUGAUCAUAAUGAGGUUUGUUAAAACGAUAGCUAUAUUCAAAAUGUCUAUUGGAAUUCUCGGGUGCCAA | 0.494 |
| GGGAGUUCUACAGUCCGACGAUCAGGAGGGCCGACGGGUGCCUCGGUCGCUCUGGGGGCAGUUUAGAUGCUGUGAAAUUAAACCCGUUCUAAGUGUACUUGUUUGAAUUAACUGUAUUGUAAUAUUAUUUGUUUGGAAUUCUCGGGUGCCAA | 0.858 |

Block 2
Target: RING finger protein unkempt homolog, zinc fingers 1-6, GST-SBP tag (UNK, Homo sapiens, UniProt Q9C0B0, residues 30-357)
Chain of UniProt Q9C0B0 (30-357, looked up): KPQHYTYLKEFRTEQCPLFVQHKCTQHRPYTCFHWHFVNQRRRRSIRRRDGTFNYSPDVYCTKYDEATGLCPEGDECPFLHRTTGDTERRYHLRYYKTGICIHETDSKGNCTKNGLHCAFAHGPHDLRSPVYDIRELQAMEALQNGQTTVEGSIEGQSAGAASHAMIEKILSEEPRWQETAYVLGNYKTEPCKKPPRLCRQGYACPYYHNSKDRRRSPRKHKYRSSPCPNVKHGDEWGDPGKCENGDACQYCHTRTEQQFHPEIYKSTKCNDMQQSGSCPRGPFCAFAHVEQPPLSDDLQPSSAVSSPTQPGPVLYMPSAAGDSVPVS
Method: RNA Bind-n-Seq
Form: RNA
Matrix: in vitro
Tested at: not given
Setting: RNA with constant flanks, ends assumed
Reference: input RNA pool
Direction: higher = stronger binding
| Strand | bound/input enrichment [ratio] |
| --- | --- |
| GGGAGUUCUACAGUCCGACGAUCGUUUUUAUACAGCCUCAAAUUGUUUUAUUAAAAAAAAAAAGAUUAAAAAAUGGUGAUGCUCCGCAGCAGUUUGUAUAAGCUCCUAGUGUCAACUCCAUGGGACUGAUGGCUUUGCUCAUUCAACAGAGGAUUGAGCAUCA | 0.858 |
| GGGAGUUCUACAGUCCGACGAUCUGAAAAUAAUCGUCACCCAGAAAAUCCAGAAAACUGAAGAUUUCAUCAGUUGGAAACAGCCGCACUUUGAAAACUUUUUAGGCCAGCUUUAAUUUAAUGGCCCUACUGAUAUUCACAUCGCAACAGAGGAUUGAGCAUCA | 0.239 |
| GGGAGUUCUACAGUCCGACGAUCUCCGGUUUGGUGAUCAAUACAGCUGGAGAAAUGGCUGGAGCUUUUGUGGCAGUGUUUUUACCCGCAAUGUUCUAUGAAGGACUCAAGAUAGCCCGAGAGAGCCUGCUGCGUAAGUCACAACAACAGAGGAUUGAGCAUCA | 0.114 |
| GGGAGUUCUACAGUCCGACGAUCUUAGCUGAGGACAAGCCUGGUCCAGGUCCAUUUUCUGAUCAGUCUGAACCUGCAAUAACUACCCGCCGUCCUGUGGCUUUUAACCCAUUUCUCAUCCCAGGAGUAUCUCCUGGACUCAUUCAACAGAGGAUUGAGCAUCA | 0.251 |
| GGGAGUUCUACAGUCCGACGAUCGCUUCUGGAUCUAGAUCCAGGAAGUCACAUUCUAAGCAAAUGCCUCGGCCUGUUAAAGGGUUCCGUUGCUUCAGUUCAUGAAUGAUCCUAUCCCAGCCUACUCCUCUGUGGCCUUGACGCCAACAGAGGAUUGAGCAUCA | 0.169 |
| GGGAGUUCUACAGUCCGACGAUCAAAACUAUUCUACAGUGCAAAAAAUACCAGCGAACUCCUGUUUAAGAAAAAUAUCCUUGAUUCCGUAAAUGAAUUUCCUGAGAAGAUUGCAUGCAGUUUGCAUGUUACAAAACAGACUACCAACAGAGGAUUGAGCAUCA | 0.414 |
| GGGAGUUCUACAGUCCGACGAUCCACCCUACUCUGGGUGCCAGUGUGCUUCAUAUCACUGAAAACGGGCCAACUGAAGUGGACUACCGUCCCUCUGAUAUCCAGGACUCUAGUUUGUCGCAUAAGAUCCCGCCAACGGAAGAGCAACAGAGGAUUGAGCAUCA | 0.202 |
| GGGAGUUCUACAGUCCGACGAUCAUUUUUCAGAGAAGUAUAGAUACUGUCUCCACUCCCUAAUAAUUUCUCUCCCUAACAUUUCCGCAAUUUUUACCUUGUUUGGGGGUUCAUUUUGUUUCUUCAGAUUUGAUUUAGACUCUGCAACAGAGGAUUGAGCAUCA | 0.838 |
| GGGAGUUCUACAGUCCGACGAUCCUGGCAGUUGAGAGACUGUUGGAGCCUCUUGUUACACAGGUUACAACCCUUGUAAACACCAACCGUAAAGGGCCCUCUAAUAAGAAGAGAGGUCGUUCUAAGAAGGCCCAUGUUUUGGCUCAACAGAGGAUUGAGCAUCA | 0.201 |
| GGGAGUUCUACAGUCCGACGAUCGAGCAAAAGUUUAAAAUUUUGUGAAUUUAUUAAAGCUCCGUUUGUUGCUUUUUUCUGUUCCCGUUUAUACUUUUGUAUCAUAUUUUAGGAAAUUUUGCACUGGGUAUUUGAUGGCUCCUGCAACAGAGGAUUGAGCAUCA | 4.74 |
| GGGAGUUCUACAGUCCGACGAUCGAAUCUUCUGACAAUGAAGGUAGGCGUACAACUAGGAGAUUGCUGUCACGGAUAGCUUCCCGCAUGUCAUCUACUUUUUUCUCACGAAGAUCUAGUCAAGAUUCCUUGAAUACAAGAUCUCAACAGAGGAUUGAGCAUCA | 0.117 |

Block 3
Target: Prothrombin, mature alpha-thrombin (F2, Homo sapiens, UniProt P00734)
Method: aptamer microarray, sandwich
Form: DNA with 2'F-ANA
Matrix: in vitro
Tested at: 200 nM
Setting: whole 15-mer aptamer, many near background
With: Cy3 exosite-II aptamer, 400 nM
Direction: higher = stronger binding
Strand: GGTTGGTGTGGTTGG
| Modification | mean fluorescence intensity |
| --- | --- |
| 2'F-ANA at 2 3 4 5 6 7 8 9 11 12 13 14 | 52.8 a.u. |
| 2'F-ANA at 2 8 13 14 | 207 a.u. |
| 2'F-ANA at 1 2 7 9 11 | 136 a.u. |
| 2'F-ANA at 1 3 6 7 8 9 13 14 | 91.1 a.u. |
| 2'F-ANA at 2 4 9 10 11 | 82.2 a.u. |
| 2'F-ANA at 1 7 9 11 13 14 15 | 52 a.u. |
| 2'F-ANA at 1 2 3 4 6 7 10 13 14 | 47.5 a.u. |
| 2'F-ANA at 1 3 5 8 9 11 14 | 50.8 a.u. |
| 2'F-ANA at 1 4 6 9 10 13 14 15 | 70.2 a.u. |
| 2'F-ANA at 1 3 8 10 13 | 258 a.u. |
| 2'F-ANA at 2 4 6 8 9 | 347 a.u. |
| 2'F-ANA at 3 4 5 6 9 10 11 12 13 14 | 51.2 a.u. |
| 2'F-ANA at 4 5 6 8 11 | 71.4 a.u. |
| 2'F-ANA at 2 7 8 9 11 13 | 417 a.u. |
| 2'F-ANA at 2 3 5 8 11 14 15 | 54.9 a.u. |
| 2'F-ANA at 3 4 6 8 9 11 | 587 a.u. |
| 2'F-ANA at 2 3 7 8 12 13 14 15 | 557 a.u. |
| 2'F-ANA at 1 3 5 12 14 | 45.3 a.u. |
| 2'F-ANA at 2 3 4 5 6 7 15 | 89.1 a.u. |
| 2'F-ANA at 1 3 7 8 9 11 12 15 | 561 a.u. |
| 2'F-ANA at 1 2 4 5 8 9 10 12 15 | 55.3 a.u. |
| 2'F-ANA at 2 6 11 12 14 15 | 151 a.u. |
| 2'F-ANA at 5 9 10 11 12 14 | 46.7 a.u. |

Block 4
Target: FOS, bZIP domain (human)
Method: DHFR protein complementation
Matrix: yeast
Setting: single substitutions, most at no-binding floor
Reference: wild-type JUN-FOS pair
Direction: higher = stronger binding
Starting sequence: JUN, bZIP domain (human); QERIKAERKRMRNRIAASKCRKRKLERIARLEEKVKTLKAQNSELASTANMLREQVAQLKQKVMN; partner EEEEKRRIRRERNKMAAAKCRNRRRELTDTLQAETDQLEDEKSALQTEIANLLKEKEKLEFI
| Substitution | binding fitness |
| --- | --- |
| T48A | -0.189 natural log |
| N42C | 0.0991 natural log |
| Q41V | -0.13 natural log |
| A57I | -0.353 natural log |
| M51F | -0.12 natural log |
| S43K | 0.144 natural log |
| M51Q | -0.00911 natural log |
| S47F | -0.0205 natural log |
| A29C | -0.271 natural log |
| E32V | -0.0997 natural log |
| E54F | -0.385 natural log |
| V35E | -1.11 natural log |
| L45N | -1.16 natural log |
